# Published values of several laboratories.
# Lines come from different studies, so protocols differ. ± marks the error that the study gave.
Compound,test,system,conditions,how to read,endpoint,result
CCCC[C@H](NC(=O)CCCCCCCNC(=O)CN1CCN(CC(=O)O)CCN(CC(=O)O)CC1)C(=O)N[C@H]1CC(=O)NCCCC[C@@H](C(N)=O)NC(=O)[C@H](Cc2c[nH]c3ccccc23)NC(=O)[C@H](CCCNC(=N)N)NC(=O)[C@@H](Cc2ccccc2)NC(=O)[C@H](Cc2c[nH]cn2)NC1=O [copper-64 labelled],,"C57 mice, muscle","intravenous, 0.37 MBq, 2 h",,tissue uptake,0.11 ± 0.06 %ID/g
CCCC[C@H](NC(=O)CNC(=O)CNC(=O)CN1CCN(CC(=O)O)CCN(CC(=O)O)CC1)C(=O)N[C@H]1CC(=O)NCCCC[C@@H](C(N)=O)NC(=O)[C@H](Cc2c[nH]c3ccccc23)NC(=O)[C@H](CCCNC(=N)N)NC(=O)[C@@H](Cc2ccccc2)NC(=O)[C@H](Cc2c[nH]cn2)NC1=O [technetium-99m labelled],,"C57 mouse, kidney","iv, 0.037 MBq, 4 h",,tissue uptake,0.81 ± 0.21 %ID/g
Cc1cc(-c2ccc(NC(=O)[C@H](CCCCNC(=O)CCOCCOCCC(=O)N[C@H](Cc3ccccc3)C(=O)N[C@H]3CSSC[C@@H](C(=O)N[C@H](C(=O)O)[C@@H](C)O)NC(=O)[C@H]([C@@H](C)O)NC(=O)[C@H](CCCCN)NC(=O)[C@@H](Cc4c[nH]c5ccccc45)NC(=O)[C@H](Cc4ccc(O)cc4)NC3=O)NC(=O)CN3CCN(CC(=O)O)CCN(CC(=O)O)CCN(CC(=O)O)CC3)c(C)c2)ccc1N=Nc1ccc2c(S(=O)(=O)O)cc(S(=O)(=O)O)c(N)c2c1O [gallium-68 labelled],micro-PET,"male BALB/c nude mouse, AR42J xenograft, tumour and kidney","intravenous, 7.4 MBq, 4 h",relative to: tumour over kidney,tumour-to-tissue uptake ratio,2.02 ± 0.23
CCCC[C@H](NC(=O)COCCOCCNC(=O)CN1CCN(CC(=O)O)CCN(CC(=O)O)CC1)C(=O)N[C@H]1CC(=O)NCCCC[C@@H](C(N)=O)NC(=O)[C@H](Cc2c[nH]c3ccccc23)NC(=O)[C@H](CCCNC(=N)N)NC(=O)[C@@H](Cc2ccccc2)NC(=O)[C@H](Cc2c[nH]cn2)NC1=O [copper-64 labelled],,"C57 mice, skin","intravenous, 0.37 MBq, 0.5 h",,tissue uptake,4.37 ± 1.12 %ID/g
CCCC[C@H](NC(=O)CNC(=O)CNC(=O)CN1CCN(CC(=O)O)CCN(CC(=O)O)CCN(CC(=O)O)CC1)C(=O)N[C@H]1CC(=O)NCCCC[C@@H](C(N)=O)NC(=O)[C@H](Cc2c[nH]c3ccccc23)NC(=O)[C@H](CCCNC(=N)N)NC(=O)[C@@H](Cc2ccccc2)NC(=O)[C@H](Cc2c[nH]cn2)NC1=O [lutetium-177 labelled],,"C57 mouse, female, intestines","intravenous, 0.037 MBq, 24 h",,tissue uptake,0.47 ± 0.13 %ID
COc1ccc2cc([C@H](C)C(=O)N[C@H](Cc3ccccc3)C(=O)N[C@H](Cc3ccccc3)C(=O)N[C@H](Cc3ccc(O)cc3)C(=O)O)ccc2c1,oscillatory rheology,hydrogel 0.8 wt%,,,critical strain,1.6%
N=C(N)NCCC[C@@H]1NC(=O)[C@H](CCCCNC(=O)CC[C@H](NC(=O)CC[C@H](NC(=O)CN2CCN(CC(=O)O)CCN(CC(=O)O)CCN(CC(=O)O)CC2)C(=O)N[C@@H](CCC(=O)NCCCC[C@@H]2NC(=O)[C@@H](Cc3ccccc3)NC(=O)[C@H](CC(=O)O)NC(=O)CNC(=O)[C@H](CCCNC(=N)N)NC2=O)C(=O)NCCCC[C@@H]2NC(=O)[C@@H](Cc3ccccc3)NC(=O)[C@H](CC(=O)O)NC(=O)CNC(=O)[C@H](CCCNC(=N)N)NC2=O)C(=O)NCCCC[C@@H]2NC(=O)[C@@H](Cc3ccccc3)NC(=O)[C@H](CC(=O)O)NC(=O)CNC(=O)[C@H](CCCNC(=N)N)NC2=O)NC(=O)[C@@H](Cc2ccccc2)NC(=O)[C@H](CC(=O)O)NC(=O)CNC1=O [indium-111 labelled],,"female athymic nu/nu mice, bone","intravenous, 4 h",,tissue uptake,0.86 ± 0.2 %ID/g
N=C(N)NCCC[C@H](NC(=O)[C@@H]1CSSC[C@H](NC(=O)[C@H](Cc2ccc3ccccc3c2)NC(=O)[C@H](CCCNC(=N)N)NC(=O)[C@H](CCCNC(=N)N)NC(=O)CN2CCN(CC(=O)O)CCN(CC(=O)O)CC2)C(=O)N[C@@H](Cc2ccc(O)cc2)C(=O)N[C@@H](CCCNC(N)=O)C(=O)N[C@@H](CCCCN)C(=O)N[C@H](CCCCN)C(=O)N2CCC[C@H]2C(=O)N[C@@H](Cc2ccc(O)cc2)C(=O)N[C@@H](CCCNC(=N)N)C(=O)N[C@@H](CCCNC(N)=O)C(=O)N1)C(N)=O [gallium-68 labelled],,normal brain,,,SUVmax range,0.1 to 0.13
N=C(N)NCCC[C@@H]1NC(=O)[C@H](CCCCNC(=O)CNC(=O)CNC(=O)CNC(=O)CC[C@H](NC(=O)CNC(=O)CNC(=O)CNC(=O)CC[C@H](NC(=O)CN2CCN(CC(=O)O)CCN(CC(=O)O)CCN(CC(=O)O)CC2)C(=O)NCC(=O)NCC(=O)NCC(=O)N[C@@H](CCC(=O)NCC(=O)NCC(=O)NCC(=O)NCCCC[C@@H]2NC(=O)[C@@H](Cc3ccccc3)NC(=O)[C@H](CC(=O)O)NC(=O)CNC(=O)[C@H](CCCNC(=N)N)NC2=O)C(=O)NCC(=O)NCC(=O)NCC(=O)NCCCC[C@@H]2NC(=O)[C@@H](Cc3ccccc3)NC(=O)[C@H](CC(=O)O)NC(=O)CNC(=O)[C@H](CCCNC(=N)N)NC2=O)C(=O)NCC(=O)NCC(=O)NCC(=O)NCCCC[C@@H]2NC(=O)[C@@H](Cc3ccccc3)NC(=O)[C@H](CC(=O)O)NC(=O)CNC(=O)[C@H](CCCNC(=N)N)NC2=O)NC(=O)[C@@H](Cc2ccccc2)NC(=O)[C@H](CC(=O)O)NC(=O)CNC1=O [indium-111 labelled],,"female athymic nu/nu mice, kidney","intravenous, 4 h",,tissue uptake,6.21 ± 0.65 %ID/g
CCCCCCCC/C=C\CCCCCCCC(=O)OC[C@H](NC(=O)[C@H](Cc1c[nH]c2ccccc12)NC(=O)[C@H](Cc1c[nH]cn1)NC(=O)[C@@H]1CCC(=O)N1)C(=O)N[C@@H](Cc1ccc(O)cc1)C(=O)N[C@H](CC(C)C)C(=O)N[C@@H](CC(C)C)C(=O)N[C@@H](CCCNC(=N)N)C(=O)N1CCC[C@H]1C(=O)NCC,HPLC,human plasma,"1 mg/mL, 4 weeks, 37 °C",,conversion to leucine,83.4%

# Repeated from above:
Compound,test,system,conditions,how to read,endpoint,result
COc1ccc2cc([C@H](C)C(=O)N[C@H](Cc3ccccc3)C(=O)N[C@H](Cc3ccccc3)C(=O)N[C@H](Cc3ccc(O)cc3)C(=O)O)ccc2c1,oscillatory rheology,hydrogel 0.8 wt%,,,critical strain,1.6%
